Measured values pooled from the literature.
Lines come from different studies, so protocols differ.
Organism: Escherichia coli

| SMILES | assay | system | setting | MIC |
| --- | --- | --- | --- | --- |
| OB(O)c1cnn(-c2cc(Cl)ncn2)c1 | bacterial growth | TEM-3 ESBL clinical isolate | without cefotaxime | 1020 µg/mL |
| CC1(C)S[C@@H]2[C@H](NC(=O)[C@H](NC(=O)C3=C(O)C(c4ccccc4F)NC3=O)c3ccccc3)C(=O)N2[C@H]1C(=O)O (stereo partly shown) | broth microdilution | Keio mutant JW5195-1 | 18 h | 50 µg/mL |
| CC(=O)N[C@@H](CC(C)C)C(=O)N[C@H]1CSSC[C@@H](C(=O)N2CCC[C@H]2C(N)=O)NC(=O)[C@H]([C@@H](C)O)NC(=O)[C@H](C(C)C)NC(=O)[C@H]([C@@H](C)O)NC(=O)CNC(=O)[C@H](CC(C)C)NC(=O)[C@H](Cc2ccccc2)NC(=O)[C@H](Cc2ccc(O)cc2)NC(=O)[C@H](CC(C)C)NC(=O)[C@H](CCCCN)NC(=O)[C@H](Cc2ccccc2)NC(=O)[C@H](CCCNC(=N)N)NC(=O)[C@H](CCC(N)=O)NC(=O)[C@H](CC(C)C)NC(=O)[C@H](CCCCN)NC(=O)[C@@H]2CCCN2C(=O)[C@H](CCCCN)NC(=O)[C@H](C(C)C)NC(=O)[C@H](CCCCN)NC(=O)[C@H](Cc2ccc(O)cc2)NC(=O)[C@H]([C@@H](C)O)NC1=O | broth dilution | laboratory strain | 24 h | 1.25 to 2.5 µM |
| CC[C@H](C)[C@H](NC(=O)[C@H](C)NC(=O)CNC(=O)[C@H](C)NC(=O)[C@H](CCCCN)NC(=O)[C@H](CO)NC(=O)[C@H](C)NC(=O)[C@H](CCSC)NC(=O)CN)C(=O)N[C@@H](C)C(=O)NCC(=O)N[C@@H](CCCCN)C(=O)N[C@H](C(=O)N[C@@H](C)C(=O)N[C@@H](CCCCN)C(=O)N[C@H](C(=O)N[C@@H](C)C(=O)N[C@@H](CC(C)C)C(=O)N[C@@H](CCCCN)C(=O)N[C@@H](C)C(=O)N[C@@H](CC(C)C)C(N)=O)C(C)C)[C@@H](C)CC |  | 0370, wild type, minimal salts medium | 18 h, 37 °C | 2.5 µg/mL |
| CC(C)[C@H](NC(=O)[C@H](Cc1ccc(O)cc1)NC(=O)[C@H](CS)NC(=O)[C@@H](NC(=O)[C@H](CCCNC(=N)N)NC(=O)[C@H](Cc1ccccc1)NC(=O)[C@H](CS)NC(=O)[C@H](Cc1c[nH]c2ccccc12)NC(=O)[C@@H](N)CCCNC(=N)N)C(C)C)C(=O)NCC(=O)N[C@@H](Cc1ccccc1)C(=O)N[C@@H](CS)C(=O)N[C@@H](Cc1ccc(O)cc1)C(=O)N[C@@H](Cc1c[nH]c2ccccc12)C(=O)N[C@@H](CCCCN)C(=O)N[C@@H](CS)C(=O)N[C@@H](CCCNC(=N)N)C(=O)O | broth microdilution | K88, Mueller-Hinton broth | 37 °C | 4.39 µg/mL |
| CC[C@H](C)[C@H](NC(=O)[C@@H](CCCNC(=N)N)NC(=O)[C@H](CCCNC(=N)N)NC(=O)[C@@H]1CCCN1C(=O)[C@@H]1CCCN1C(=O)[C@H](Cc1c[nH]cn1)NC(=O)[C@@H]1CCCN1C(=O)[C@H](CCCNC(=N)N)NC(=O)[C@@H]1CCCN1C(=O)[C@H](CC(C)C)NC(=O)[C@H](Cc1ccc(O)cc1)NC(=O)[C@@H]1CCCN1C(=O)[C@@H]1CCCN1C(=O)[C@H](CCCCN)NC(=O)[C@H](CC(=O)O)NC(=O)[C@@H](N)C(C)C)C(=O)N[C@@H](Cc1ccc(O)cc1)C(=O)N[C@@H](CC(N)=O)C(=O)N[C@H](CCCNC(=N)N)C(N)=O | broth microdilution | ATCC 25922 | 18 h, 37 °C, 25% MHB2 | 32 µg/mL |
| CC(C)c1cccc2c(-c3ccc(F)cc3)c(C(=O)O)[nH]c12 |  | NDM-1 producing | compound alone | > 2000 µM |
| CC[C@H](C)[C@H](NC(=O)[C@@H](NC(=O)[C@H](CCCCN)NC(=O)[C@H](CCC(N)=O)NC(=O)[C@@H](NC(=O)[C@H](Cc1c[nH]c2ccccc12)NC(=O)[C@H](CCCCN)NC(=O)[C@H](CCCCN)NC(=O)[C@H](CC(C)C)NC(=O)[C@H](CCCNC(=N)N)NC(=O)[C@H](Cc1ccccc1)NC(=O)[C@@H](N)C(C)C)[C@@H](C)CC)C(C)C)C(N)=O |  |  | 24 h, 37 °C, Mueller-Hinton broth, MgCl2 1 mM | 64 µM |
| CC1(C)[C@H](NC(=O)/C(=N\OCCN)c2nsc(N)n2)C(=O)N1OS(=O)(=O)O | agar dilution | 08-85, mcr-1 |  | 32 µg/mL |
| Cc1ccnc(-c2cc(C(=O)NCCCCCC(=O)N[C@@H](CCCNC(=N)N)C(=O)N[C@@H](Cc3c[nH]c4ccccc34)C(=O)N[C@@H](CCCNC(=N)N)C(=O)N[C@@H](Cc3c[nH]c4ccccc34)C(=O)N[C@@H](CCCNC(=N)N)C(=O)N[C@@H](Cc3c[nH]c4ccccc34)C(N)=O)ccn2)c1 |  | ATCC 25922, susceptible | 18 h, 37 °C, dark | 16 µM |
| CC[C@H](C)[C@H](NC(=O)[C@H](CCCCN)NC(=O)[C@H](CCCNC(=N)N)NC(=O)[C@H](Cc1c[nH]c2ccccc12)NC(=O)[C@@H](NC(=O)[C@H](CCCCN)NC(=O)[C@H](CCCNC(=N)N)NC(=O)[C@@H](NC(=O)[C@H](CCCNC(=N)N)NC(=O)[C@H](CCCCN)NC(=O)[C@H](CCCNC(=N)N)NC(=O)[C@H](CC(C)C)NC(=O)[C@H](CCCNC(=N)N)NC(=O)[C@H](CO)NC(=O)[C@H](Cc1ccccc1)NC(=O)[C@H](CCCNC(=N)N)NC(=O)CN)[C@@H](C)CC)C(C)C)C(=O)NCC(=O)N1CCC[C@H]1C(=O)N[C@H](C(=O)N[C@@H](C)C(=O)NCC(=O)N1CCC[C@H]1C(=O)N[C@H](C(=O)N[C@H](C(=O)NCC(=O)N[C@@H](Cc1c[nH]cn1)C(=O)N[C@@H](Cc1ccccc1)C(=O)NCC(=O)O)[C@@H](C)CC)[C@@H](C)CC)[C@@H](C)CC | CLSI agar dilution | ATCC 25922 | 20 h, 37 °C | 16 µg/mL |
| CC[C@H](C)[C@H](NC(=O)[C@@H](CCCNC(=N)N)NC(=O)[C@H](CCCNC(=N)N)NC(=O)[C@@H]1CCCN1C(=O)[C@@H]1CCCN1C(=O)[C@H](Cc1c[nH]c2ccccc12)NC(=O)[C@@H]1CCCN1C(=O)[C@H](CCCNC(=N)N)NC(=O)[C@@H]1CCCN1C(=O)[C@H](CC(C)C)NC(=O)[C@H](Cc1ccc(O)cc1)NC(=O)[C@@H]1CCCN1C(=O)[C@@H]1CCCN1C(=O)[C@H](CCCCN)NC(=O)[C@H](CC(=O)O)NC(=O)[C@@H](N)C(C)C)C(=O)N[C@@H](Cc1ccc(O)cc1)C(=O)N[C@@H](CC(N)=O)C(=O)N[C@H](CCCNC(=N)N)C(N)=O | broth microdilution | BW25113 | 18 h, 37 °C, 25% MHB2 | 8 µg/mL |
| CC(C)Oc1c(NC(=O)c2ccc(NC(=O)[C@H](CC(N)=O)NC(=O)c3ccc(/N=N/c4ccccc4)cc3)cc2)ccc(C(=O)N/N=C/c2ccc(C(=O)O)cc2)c1O |  | BW25113 | after 1 h irradiation at 365 nm | 0.28 µg/mL |
| CSCC[C@H](NC=O)C(=O)N[C@@H](CCCNC(=N)N)C(=O)N[C@H](C(=O)NCC(=O)N[C@@H](CC(N)=O)C(=O)N[C@@H](C)C(=O)N[C@@H](CC(N)=O)C(=O)O)[C@@H](C)O | broth dilution | K12 MG1655 efflux knock-out |  | > 200 µM |
| CC[C@H](C)[C@H](NC(=O)[C@@H](CCCNC(=N)N)NC(=O)[C@H](CCCNC(=N)N)NC(=O)[C@@H]1CCCN1C(=O)[C@@H]1CCCN1C(=O)[C@H](CCCNC(=N)N)NC(=O)[C@@H]1CCCN1C(=O)[C@H](CCCNC(=N)N)NC(=O)[C@@H]1CCCN1C(=O)[C@H](CC(C)C)NC(=O)[C@H](Cc1cc(I)c(O)c(I)c1)NC(=O)[C@@H]1CCCN1C(=O)[C@@H]1CCCN1C(=O)[C@H](CCCCN)NC(=O)[C@H](CC(=O)O)NC(=O)[C@@H](N)C(C)C)C(=O)N[C@@H](Cc1ccc(O)cc1)C(=O)N[C@@H](CC(N)=O)C(=O)N[C@H](CCCNC(=N)N)C(N)=O | broth microdilution | MC4100 | 18 h, 37 °C, 25% MHB2 | 64 µg/mL |
| CO[C@@H](C(N)=O)[C@H](NC(=O)c1ccc(NC(=O)[C@@H](N)Cc2ccc(O)cc2)cc1)C(=O)Nc1ccc(C(=O)Nc2ccc(C(=O)Nc3ccc(C(=O)O)cc3)c(O)c2OC(C)C)cc1 |  | MerR family clone | 16 h, 37 °C | > 8 µg/mL |
| CCCCCCCC[C@@H]1NC(=O)[C@@H](Cc2ccccc2)NC(=O)[C@H](CCN)NC(=O)[C@@H](NC(=O)[C@H](CCN)NC(=O)[C@@H](NC(=O)[C@H](CCN)NC(=O)CCCCCCC)[C@@H](C)O)CCNC(=O)[C@H]([C@@H](C)O)NC(=O)[C@H](CCN)NC(=O)[C@H](CCN)NC1=O | broth microdilution | mcr-1, colistin-resistant |  | 1 to 2 µg/mL |
| CC[C@H](C)[C@H](NC(=O)[C@@H](CCCNC(=N)N)NC(=O)[C@H](CCCNC(=N)N)NC(=O)[C@H](CC(C)C)NC(=O)[C@H](Cc1c[nH]c2ccccc12)NC(=O)[C@H](CCCNC(=N)N)NC(=O)[C@@H]1CCCN1C(=O)[C@H](CCCNC(=N)N)NC(=O)[C@@H]1CCCN1C(=O)[C@H](CC(C)C)NC(=O)[C@H](Cc1ccc(O)cc1)NC(=O)[C@@H]1CCCN1C(=O)[C@@H]1CCCN1C(=O)[C@H](CCCCN)NC(=O)[C@H](CC(=O)O)NC(=O)[C@@H](N)C(C)C)C(=O)N[C@@H](Cc1ccc(O)cc1)C(=O)N[C@@H](CC(N)=O)C(=O)N[C@H](CCCNC(=N)N)C(N)=O | broth microdilution | MC4100 | 18 h, 37 °C, 25% MHB2 | 32 µg/mL |
| CC(C)C[C@H](NC(=O)[C@@H](NC(=O)[C@H](CCCCN)NC(=O)[C@H](CCCCN)NC(=O)[C@H](CC(C)C)NC(=O)[C@H](Cc1c[nH]c2ccccc12)NC(=O)[C@H](CCCCN)NC(=O)[C@H](Cc1c[nH]c2ccccc12)NC(=O)[C@H](CC(C)C)NC(=O)[C@H](CCCCN)NC(=O)[C@H](CCCCN)NC(=O)[C@@H](N)C(C)C)C(C)C)C(N)=O |  |  | 24 h, 37 °C, Mueller-Hinton broth, CaCl2 2.5 mM | 64 µM |

A few entries again:
| SMILES | assay | system | setting | MIC |
| --- | --- | --- | --- | --- |
| CC1(C)[C@H](NC(=O)/C(=N\OCCN)c2nsc(N)n2)C(=O)N1OS(=O)(=O)O | agar dilution | 08-85, mcr-1 |  | 32 µg/mL |
| Cc1ccnc(-c2cc(C(=O)NCCCCCC(=O)N[C@@H](CCCNC(=N)N)C(=O)N[C@@H](Cc3c[nH]c4ccccc34)C(=O)N[C@@H](CCCNC(=N)N)C(=O)N[C@@H](Cc3c[nH]c4ccccc34)C(=O)N[C@@H](CCCNC(=N)N)C(=O)N[C@@H](Cc3c[nH]c4ccccc34)C(N)=O)ccn2)c1 |  | ATCC 25922, susceptible | 18 h, 37 °C, dark | 16 µM |
